Published values gathered from unrelated publications.
Each line is one published result; not all experiments were run side by side. Several values in a cell are separate wells, animals, samples, runs or records. ± marks the error that the study gave.
CYP3A4: Cytochrome P450 3A4 (CYP3A4, Homo sapiens, UniProt P08684)
UniProt P08684, sequence (whole entry, looked up): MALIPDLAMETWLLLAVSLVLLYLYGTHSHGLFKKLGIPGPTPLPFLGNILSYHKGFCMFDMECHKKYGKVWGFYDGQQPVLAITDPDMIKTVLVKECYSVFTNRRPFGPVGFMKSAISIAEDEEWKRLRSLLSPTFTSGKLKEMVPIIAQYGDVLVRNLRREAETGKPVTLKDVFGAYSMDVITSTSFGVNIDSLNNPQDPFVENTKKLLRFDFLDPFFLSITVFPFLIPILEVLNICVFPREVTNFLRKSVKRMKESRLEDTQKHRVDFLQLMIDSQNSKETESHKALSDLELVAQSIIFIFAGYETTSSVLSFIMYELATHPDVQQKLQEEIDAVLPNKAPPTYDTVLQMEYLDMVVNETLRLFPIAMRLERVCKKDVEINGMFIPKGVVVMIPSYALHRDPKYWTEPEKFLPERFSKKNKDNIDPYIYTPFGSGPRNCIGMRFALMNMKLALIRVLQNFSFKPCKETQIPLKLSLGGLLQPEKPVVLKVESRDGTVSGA
Trypsin: Trypsin (Sus scrofa, UniProt P00761)
UniProt P00761, sequence (whole entry, looked up): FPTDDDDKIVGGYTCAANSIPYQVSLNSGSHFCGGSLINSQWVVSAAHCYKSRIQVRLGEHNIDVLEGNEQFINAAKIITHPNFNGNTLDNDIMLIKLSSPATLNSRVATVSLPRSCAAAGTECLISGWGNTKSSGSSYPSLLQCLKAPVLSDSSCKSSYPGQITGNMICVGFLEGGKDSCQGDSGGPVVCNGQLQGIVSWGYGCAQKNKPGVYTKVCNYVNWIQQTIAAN
CYP3A7: Cytochrome P450 3A7 (CYP3A7, Homo sapiens, UniProt P24462)
UniProt P22310, sequence (whole entry, looked up): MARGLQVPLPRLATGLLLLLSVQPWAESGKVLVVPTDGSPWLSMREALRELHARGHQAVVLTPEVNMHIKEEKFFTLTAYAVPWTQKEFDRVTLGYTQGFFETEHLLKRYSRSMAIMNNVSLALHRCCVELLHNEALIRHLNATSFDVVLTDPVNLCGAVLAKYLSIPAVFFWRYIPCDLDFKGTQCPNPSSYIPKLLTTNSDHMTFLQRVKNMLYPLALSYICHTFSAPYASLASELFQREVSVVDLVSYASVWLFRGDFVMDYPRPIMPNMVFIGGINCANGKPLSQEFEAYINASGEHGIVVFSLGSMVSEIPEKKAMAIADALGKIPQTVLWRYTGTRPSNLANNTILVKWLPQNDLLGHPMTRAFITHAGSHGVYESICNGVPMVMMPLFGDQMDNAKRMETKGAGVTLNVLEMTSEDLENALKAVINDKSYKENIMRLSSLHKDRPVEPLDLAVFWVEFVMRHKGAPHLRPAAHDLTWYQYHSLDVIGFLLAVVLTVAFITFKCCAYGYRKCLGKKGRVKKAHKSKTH
UniProt P24462, sequence (whole entry, looked up): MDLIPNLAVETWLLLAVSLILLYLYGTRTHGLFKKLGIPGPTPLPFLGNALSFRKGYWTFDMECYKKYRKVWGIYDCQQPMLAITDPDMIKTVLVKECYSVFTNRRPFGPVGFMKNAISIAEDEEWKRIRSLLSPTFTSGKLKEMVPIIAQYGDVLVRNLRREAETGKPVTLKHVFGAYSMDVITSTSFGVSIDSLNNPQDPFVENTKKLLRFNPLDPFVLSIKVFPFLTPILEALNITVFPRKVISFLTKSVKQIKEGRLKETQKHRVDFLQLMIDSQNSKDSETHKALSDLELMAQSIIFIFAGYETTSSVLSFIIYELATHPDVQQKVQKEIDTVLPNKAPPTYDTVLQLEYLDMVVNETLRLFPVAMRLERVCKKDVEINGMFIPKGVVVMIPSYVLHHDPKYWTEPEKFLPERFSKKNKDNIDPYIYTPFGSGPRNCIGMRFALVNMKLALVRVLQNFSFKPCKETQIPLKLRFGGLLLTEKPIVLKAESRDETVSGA
UniProt P08183, sequence (whole entry, looked up): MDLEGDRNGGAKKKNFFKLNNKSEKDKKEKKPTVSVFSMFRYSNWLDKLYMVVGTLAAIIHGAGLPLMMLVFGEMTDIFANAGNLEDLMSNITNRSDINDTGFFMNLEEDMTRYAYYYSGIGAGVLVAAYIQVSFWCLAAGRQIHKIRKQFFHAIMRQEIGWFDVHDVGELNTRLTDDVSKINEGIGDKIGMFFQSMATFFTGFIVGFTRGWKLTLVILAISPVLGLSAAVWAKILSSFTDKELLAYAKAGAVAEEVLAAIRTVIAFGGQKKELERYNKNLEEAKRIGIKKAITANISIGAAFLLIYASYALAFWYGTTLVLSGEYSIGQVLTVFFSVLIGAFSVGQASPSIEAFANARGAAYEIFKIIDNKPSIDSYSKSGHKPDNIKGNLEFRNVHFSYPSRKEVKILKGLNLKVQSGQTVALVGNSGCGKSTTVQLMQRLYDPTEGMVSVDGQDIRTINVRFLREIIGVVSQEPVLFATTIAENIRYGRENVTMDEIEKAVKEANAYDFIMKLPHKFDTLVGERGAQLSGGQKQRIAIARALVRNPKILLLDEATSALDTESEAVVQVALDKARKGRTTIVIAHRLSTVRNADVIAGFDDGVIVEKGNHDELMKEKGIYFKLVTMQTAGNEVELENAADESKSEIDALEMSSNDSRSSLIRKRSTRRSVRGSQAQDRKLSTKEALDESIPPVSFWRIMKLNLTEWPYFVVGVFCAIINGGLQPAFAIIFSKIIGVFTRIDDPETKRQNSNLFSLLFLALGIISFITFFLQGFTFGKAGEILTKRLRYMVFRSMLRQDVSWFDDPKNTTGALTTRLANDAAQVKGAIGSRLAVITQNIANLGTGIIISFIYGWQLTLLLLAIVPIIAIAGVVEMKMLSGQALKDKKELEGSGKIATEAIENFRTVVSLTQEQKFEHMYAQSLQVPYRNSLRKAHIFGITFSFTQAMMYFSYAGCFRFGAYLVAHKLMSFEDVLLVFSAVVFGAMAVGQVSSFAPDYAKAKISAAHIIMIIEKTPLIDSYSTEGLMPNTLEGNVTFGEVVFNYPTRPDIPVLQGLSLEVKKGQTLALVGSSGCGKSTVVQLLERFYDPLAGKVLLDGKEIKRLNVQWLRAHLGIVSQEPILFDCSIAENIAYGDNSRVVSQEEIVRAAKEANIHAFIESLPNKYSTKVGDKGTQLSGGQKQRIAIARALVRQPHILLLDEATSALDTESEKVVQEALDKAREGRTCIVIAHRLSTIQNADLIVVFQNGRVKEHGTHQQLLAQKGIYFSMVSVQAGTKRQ
UniProt Q12809, sequence (whole entry, looked up): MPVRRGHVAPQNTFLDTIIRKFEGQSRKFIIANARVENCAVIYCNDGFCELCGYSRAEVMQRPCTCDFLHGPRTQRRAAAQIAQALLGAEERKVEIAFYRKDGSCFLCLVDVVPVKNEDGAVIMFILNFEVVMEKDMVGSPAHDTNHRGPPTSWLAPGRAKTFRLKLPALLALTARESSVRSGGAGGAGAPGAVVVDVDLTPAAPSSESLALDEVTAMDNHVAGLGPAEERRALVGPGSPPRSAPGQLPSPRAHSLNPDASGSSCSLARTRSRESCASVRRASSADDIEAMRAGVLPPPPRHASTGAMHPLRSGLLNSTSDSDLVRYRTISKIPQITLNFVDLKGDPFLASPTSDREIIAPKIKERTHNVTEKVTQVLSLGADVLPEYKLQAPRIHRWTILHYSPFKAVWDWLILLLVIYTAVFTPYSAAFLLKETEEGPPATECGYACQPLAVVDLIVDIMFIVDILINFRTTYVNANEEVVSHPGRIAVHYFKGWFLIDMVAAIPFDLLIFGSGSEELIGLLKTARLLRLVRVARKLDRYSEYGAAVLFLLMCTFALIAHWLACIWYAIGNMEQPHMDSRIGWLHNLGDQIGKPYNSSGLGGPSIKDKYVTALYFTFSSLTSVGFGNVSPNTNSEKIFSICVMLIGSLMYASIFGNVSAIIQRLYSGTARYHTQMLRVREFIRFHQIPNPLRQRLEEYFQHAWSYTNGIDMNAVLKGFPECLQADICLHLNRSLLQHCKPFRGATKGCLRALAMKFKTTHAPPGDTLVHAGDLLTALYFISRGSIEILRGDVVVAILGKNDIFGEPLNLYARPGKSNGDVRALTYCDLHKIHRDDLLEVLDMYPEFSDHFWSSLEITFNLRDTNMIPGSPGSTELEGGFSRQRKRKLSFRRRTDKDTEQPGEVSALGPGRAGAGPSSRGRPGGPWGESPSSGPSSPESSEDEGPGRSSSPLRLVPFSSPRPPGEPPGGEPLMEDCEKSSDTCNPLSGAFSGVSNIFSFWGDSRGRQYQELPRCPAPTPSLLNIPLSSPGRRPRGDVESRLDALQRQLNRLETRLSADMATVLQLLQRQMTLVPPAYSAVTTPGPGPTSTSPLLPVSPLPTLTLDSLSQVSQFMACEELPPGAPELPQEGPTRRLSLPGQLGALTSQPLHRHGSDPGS
UniProt Q96JM7, sequence (whole entry, looked up): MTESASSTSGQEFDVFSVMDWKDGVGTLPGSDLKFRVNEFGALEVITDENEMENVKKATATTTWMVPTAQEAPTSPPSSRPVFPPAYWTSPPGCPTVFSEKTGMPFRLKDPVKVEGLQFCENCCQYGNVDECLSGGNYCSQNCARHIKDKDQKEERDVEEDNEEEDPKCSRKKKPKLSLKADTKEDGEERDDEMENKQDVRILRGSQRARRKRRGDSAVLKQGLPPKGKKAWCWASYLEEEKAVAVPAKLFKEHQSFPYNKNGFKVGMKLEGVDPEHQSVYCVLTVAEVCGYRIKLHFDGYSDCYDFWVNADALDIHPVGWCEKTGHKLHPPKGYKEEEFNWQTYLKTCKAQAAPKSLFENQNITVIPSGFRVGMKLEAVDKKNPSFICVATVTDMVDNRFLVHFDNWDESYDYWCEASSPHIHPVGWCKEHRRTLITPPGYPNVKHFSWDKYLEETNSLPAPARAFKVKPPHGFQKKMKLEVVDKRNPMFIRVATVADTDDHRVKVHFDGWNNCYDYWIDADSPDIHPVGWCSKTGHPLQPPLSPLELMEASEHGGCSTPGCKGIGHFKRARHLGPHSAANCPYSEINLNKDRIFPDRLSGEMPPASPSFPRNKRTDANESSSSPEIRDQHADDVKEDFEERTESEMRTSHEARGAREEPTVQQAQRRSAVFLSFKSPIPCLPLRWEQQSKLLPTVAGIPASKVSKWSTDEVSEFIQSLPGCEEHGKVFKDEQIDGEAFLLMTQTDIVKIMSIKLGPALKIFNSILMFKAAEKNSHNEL

CN1C[C@@H]2C[C@H]1CN2c1cc2c(cc1F)c(=O)c(C(=O)O)cn2C1CC1  percent transported (ABCG2 (sheep); apical-to-basolateral transport, transepithelial transport; MDCK-II transduced with ovine ABCG2, HBSS with HEPES; 10 µM, 4 h): 5.06 ± 1.84%
CC1(C)CCC2(CC1)N[C@@H](C(=O)N[C@@H]1CC[C@@H](C(N)=O)OC1)[C@H](c1ccnc(Cl)c1F)[C@]21C(=O)Nc2cc(Cl)ccc21  Papp A to B (ATP-dependent translocase ABCB1 (ABCB1, Homo sapiens, UniProt P08183); Caco-2 monolayers; 100 µM, 120 min, no inhibitor): 4.42 ×10⁻⁶ cm/s
COc1ccc(F)cc1C(=O)NCc1ccc(-c2nn([C@@H](C)C(F)(F)F)c(N)c2C(N)=O)cc1  Tmax (CYP3A4; human, both sexes, plasma; oral, 200 mg, single dose, together with: rifampin): 2.25 h
C=CC(=O)N1C[C@H](Nc2ncnc3[nH]ccc23)CC[C@@H]1C  apparent volume Vz/F (CYP3A; substrate; human, plasma; oral, single dose, together with: itraconazole multiple doses): 164 L
Cn1cncc1[C@@](N)(c1ccc(Cl)cc1)c1ccc2c(c1)c(-c1cccc(Cl)c1)cc(=O)n2C  fraction metabolised by UGT1A4 (UDP-glucuronosyltransferase 1A4 (UGT1A4, Homo sapiens, UniProt P22310); reaction phenotyping; human liver microsomes): ~61% and 60.5%
CC[C@H]1[C@@H](O)[C@@H]2[C@H](CC[C@]3(C)[C@@H]([C@H](C)CCNC(=O)NS(=O)(=O)c4ccc(C(C)(C)C)cc4)CC[C@@H]23)[C@@]2(C)CC[C@@H](O)C[C@@H]12  CL/F (CYP3A4; human, plasma; geometric mean, together with: fluconazole): 3.25 L/h
CC(C)C[C@H](NC(=O)CNC(=O)[C@H](C)NC(=O)[C@H](CC(C)C)NC(=O)[C@H](CC(N)=O)NC(=O)[C@H](Cc1c[nH]c2ccccc12)NC(=O)[C@@H](NC(=O)[C@H](Cc1ccc(O)cc1)NC(=O)[C@H](Cc1ccc(O)cc1)NC(=O)[C@H](CO)NC(=O)[C@H](CCCNC(=N)N)NC(=O)[C@H](Cc1c[nH]cn1)NC(=O)[C@@H](N)Cc1c[nH]c2ccccc12)[C@@H](C)O)C(=O)N[C@H](C(=O)NCC(=O)N[C@@H](CCCCN)C(=O)O)C(C)C  cleavage efficiency (MMP-2 human recombinant; 48 h, pH 7.5, 37 °C, together with: MMP-2 5 ng/µL): 95.2%
CC[C@H](C)[C@H](NC(=O)[C@H](CO)NC(=O)[C@H](Cc1ccc(O)cc1)NC(=O)[C@H](CC(=O)O)NC(=O)[C@H](CO)NC(=O)[C@@H](NC(=O)[C@H](Cc1ccccc1)NC(=O)[C@@H](NC(=O)CNC(=O)[C@H](CCC(=O)O)NC(=O)[C@H](C)NC(=O)[C@@H](N)Cc1ccc(O)cc1)[C@@H](C)O)[C@@H](C)CC)C(=O)N[C@@H](C)C(=O)N[C@@H](CCSC)C(=O)N[C@@H](CC(=O)O)C(=O)N[C@@H](CCCCN)C(=O)N[C@H](C(=O)N[C@@H](Cc1c[nH]cn1)C(=O)N[C@@H](CCC(N)=O)C(=O)N[C@@H](CCC(N)=O)C(=O)N[C@@H](CC(=O)O)C(=O)N[C@@H](Cc1ccccc1)C(=O)N[C@H](C(=O)N[C@@H](CC(N)=O)C(=O)N[C@@H](Cc1c[nH]c2ccccc12)C(=O)N[C@@H](CC(C)C)C(=O)N[C@@H](CC(C)C)C(=O)N[C@@H](C)C(=O)N[C@@H](CCC(N)=O)C(=O)N[C@@H](CCCCN)C(=O)NCC(=O)N[C@@H](CCCCN)C(=O)N[C@@H](CCCCN)C(=O)N[C@@H](CC(N)=O)C(=O)N[C@@H](CC(=O)O)C(=O)N[C@@H](Cc1c[nH]c2ccccc12)C(=O)N[C@@H](CCCCN)C(=O)N[C@@H](Cc1c[nH]cn1)C(=O)N[C@@H](CC(N)=O)C(=O)N[C@H](C(=O)N[C@H](C(=O)N[C@@H](CCC(N)=O)C(=O)O)[C@@H](C)O)[C@@H](C)CC)C(C)C)[C@@H](C)CC  fragment formed (Trypsin; LC-MS, measured: fragment 1-32; 18 h, pH 8.0, 37 °C, together with: trypsin 2.5 mg/mL): 36%
Cc1cnc(C(=O)N[C@H]2CCCCC/C=C\[C@@H]3C[C@@]3(C(=O)NS(=O)(=O)C3CC3)NC(=O)[C@@H]3C[C@@H](Oc4nc5ccccc5c5ccccc45)CN3C2=O)cn1  remaining activity (CYP3A7; fluorescence; recombinant bactosomes; 20 µM, 10 min, pH 7.4, together with: dibenzylfluorescein at Km; baseline: solvent control): ~25%
Cc1oc2ccccc2c1Cc1cc(I)c(OCC(=O)O)c(I)c1  activation rate acceleration (Voltage-gated inwardly rectifying potassium channel KCNH2 (KCNH2, Homo sapiens, UniProt Q12809); potassium current, whole-cell patch clamp; HEK293 expressing hERG1; 10 µM, envelope-of-tails at -20 mV, 10 mM K+; baseline: control): 3.8 fold
CC[C@H](C)[C@H](NC(=O)[C@H](CO)NC(=O)[C@H](Cc1ccc(O)cc1)NC(=O)[C@H](CC(=O)O)NC(=O)[C@H](CO)NC(=O)[C@@H](NC(=O)[C@H](Cc1ccccc1)NC(=O)[C@@H](NC(=O)CNC(=O)[C@H](CCC(=O)O)NC(=O)[C@H](C)NC(=O)[C@H](Cc1ccc(O)cc1)NCC(F)(F)F)[C@@H](C)O)[C@@H](C)CC)C(=O)N[C@@H](C)C(=O)N[C@@H](CCSC)C(=O)N[C@@H](CC(=O)O)C(=O)N[C@@H](CCCCN)C(=O)N[C@H](C(=O)N[C@@H](Cc1c[nH]cn1)C(=O)N[C@@H](CCC(N)=O)C(=O)N[C@@H](CCCCNC(=O)COCCOCCNC(=O)COCCOCCNC(=O)CC[C@H](NC(=O)CCCCCCCCCCCCCCCCC(=O)O)C(=O)O)C(=O)N[C@@H](CC(=O)O)C(=O)N[C@@H](Cc1ccccc1)C(=O)N[C@H](C(=O)N[C@@H](CC(N)=O)C(=O)N[C@@H](Cc1c[nH]c2ccccc12)C(=O)N[C@@H](CC(C)C)C(=O)N[C@@H](CC(C)C)C(=O)N[C@@H](C)C(=O)N[C@@H](CCC(N)=O)C(=O)N[C@@H](CCCCN)C(=O)NCC(=O)N[C@@H](CCCCN)C(=O)N[C@@H](CCCCN)C(=O)N[C@@H](CC(N)=O)C(=O)N[C@@H](CC(=O)O)C(=O)N[C@@H](Cc1c[nH]c2ccccc12)C(=O)N[C@@H](CCCCN)C(=O)N[C@@H](Cc1c[nH]cn1)C(=O)N[C@@H](CC(N)=O)C(=O)N[C@H](C(=O)N[C@H](C(=O)N[C@@H](CCC(N)=O)C(=O)O)[C@@H](C)O)[C@@H](C)CC)C(C)C)[C@@H](C)CC  fragment formed (Trypsin; LC-MS, measured: fragment 1-30; 18 h, pH 8.0, 37 °C, together with: trypsin 2.5 mg/mL): 4%
CCCCC1=NC2(CCCC2)C(=O)N1Cc1ccc(-c2ccccc2S(=O)(=O)Nc2noc(C)c2C)c(COCC)c1  Hill coefficient (CYP2C9; enzyme induction, inducer; human): 1
Cc1cc(Nc2ncnc3ccc(NC4=NC(C)(CO)CO4)cc23)ccc1Oc1ccn2ncnc2c1 (stereo not drawn)  Cmax (geometric mean) (CYP3A4; human, plasma; tucatinib, day 6, together with: itraconazole): 125 ng/mL
COc1ccc2c(O[C@@H]3C[C@H]4C(=O)N[C@]5(C(=O)NS(=O)(=O)C6CC6)C[C@H]5/C=C\CCCCN(C)C(=O)[C@@H]4C3)cc(-c3nc(C(C)C)cs3)nc2c1C  remaining activity (CYP3A7; fluorescence; recombinant bactosomes; 20 µM, 10 min, pH 7.4, together with: dibenzylfluorescein at Km; baseline: solvent control): ~35%
O=C(c1ccc(C(=O)N2CCC(N3CCCC3)CC2)c(Nc2ccccc2)c1)N1CCC(N2CCCC2)CC1  FRAP recovery half-time (Lethal(3)malignant brain tumor-like protein 3 (Homo sapiens, UniProt Q96JM7); FRAP; human cells; 1 µM): 19.9 s

A few entries again:
CCCCC1=NC2(CCCC2)C(=O)N1Cc1ccc(-c2ccccc2S(=O)(=O)Nc2noc(C)c2C)c(COCC)c1  Hill coefficient (CYP2C9; enzyme induction, inducer; human): 1
